{"data": "Assay results gathered from unrelated publications", "Ugcg": "Ceramide glucosyltransferase (Ugcg, Mus musculus, UniProt O88693)", "note": "Compare with care: the assays were run in different laboratories. ± marks the error that the study gave.", "UniProt O88693, sequence (whole entry, looked up)": "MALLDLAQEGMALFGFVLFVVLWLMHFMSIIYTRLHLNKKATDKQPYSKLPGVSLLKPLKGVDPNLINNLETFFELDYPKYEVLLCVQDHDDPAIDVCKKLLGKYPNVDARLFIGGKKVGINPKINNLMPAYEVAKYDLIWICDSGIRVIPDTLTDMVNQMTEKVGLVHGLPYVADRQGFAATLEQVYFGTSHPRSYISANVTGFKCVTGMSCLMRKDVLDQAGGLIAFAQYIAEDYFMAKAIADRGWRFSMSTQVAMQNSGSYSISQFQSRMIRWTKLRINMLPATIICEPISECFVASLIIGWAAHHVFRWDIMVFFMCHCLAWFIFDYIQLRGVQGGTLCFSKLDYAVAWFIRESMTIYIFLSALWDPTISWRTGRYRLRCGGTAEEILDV", "UniProt P25103, sequence (whole entry, unmodified, looked up)": "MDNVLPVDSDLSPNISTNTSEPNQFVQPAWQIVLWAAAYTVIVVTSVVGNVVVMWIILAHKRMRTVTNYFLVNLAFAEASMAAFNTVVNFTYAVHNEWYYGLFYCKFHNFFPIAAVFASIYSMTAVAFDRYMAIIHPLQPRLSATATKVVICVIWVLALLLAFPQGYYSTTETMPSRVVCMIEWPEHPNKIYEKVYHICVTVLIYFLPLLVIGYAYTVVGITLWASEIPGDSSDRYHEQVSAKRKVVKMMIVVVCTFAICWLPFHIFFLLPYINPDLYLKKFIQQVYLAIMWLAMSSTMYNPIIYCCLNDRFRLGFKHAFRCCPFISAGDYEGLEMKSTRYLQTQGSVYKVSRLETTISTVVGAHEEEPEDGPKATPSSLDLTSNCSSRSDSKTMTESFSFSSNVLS", "UniProt P35462, sequence (whole entry, looked up)": "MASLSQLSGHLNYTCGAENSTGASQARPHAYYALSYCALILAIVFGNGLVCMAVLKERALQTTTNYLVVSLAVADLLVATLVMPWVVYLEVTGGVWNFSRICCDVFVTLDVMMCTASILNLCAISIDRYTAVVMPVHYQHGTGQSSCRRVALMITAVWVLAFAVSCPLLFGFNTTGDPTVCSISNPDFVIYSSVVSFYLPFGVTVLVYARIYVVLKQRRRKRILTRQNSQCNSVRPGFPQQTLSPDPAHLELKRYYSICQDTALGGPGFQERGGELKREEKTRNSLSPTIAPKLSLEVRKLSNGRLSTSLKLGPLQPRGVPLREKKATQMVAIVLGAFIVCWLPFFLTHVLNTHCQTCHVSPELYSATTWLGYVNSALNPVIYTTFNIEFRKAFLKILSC", "UniProt P04629, sequence (whole entry, looked up)": "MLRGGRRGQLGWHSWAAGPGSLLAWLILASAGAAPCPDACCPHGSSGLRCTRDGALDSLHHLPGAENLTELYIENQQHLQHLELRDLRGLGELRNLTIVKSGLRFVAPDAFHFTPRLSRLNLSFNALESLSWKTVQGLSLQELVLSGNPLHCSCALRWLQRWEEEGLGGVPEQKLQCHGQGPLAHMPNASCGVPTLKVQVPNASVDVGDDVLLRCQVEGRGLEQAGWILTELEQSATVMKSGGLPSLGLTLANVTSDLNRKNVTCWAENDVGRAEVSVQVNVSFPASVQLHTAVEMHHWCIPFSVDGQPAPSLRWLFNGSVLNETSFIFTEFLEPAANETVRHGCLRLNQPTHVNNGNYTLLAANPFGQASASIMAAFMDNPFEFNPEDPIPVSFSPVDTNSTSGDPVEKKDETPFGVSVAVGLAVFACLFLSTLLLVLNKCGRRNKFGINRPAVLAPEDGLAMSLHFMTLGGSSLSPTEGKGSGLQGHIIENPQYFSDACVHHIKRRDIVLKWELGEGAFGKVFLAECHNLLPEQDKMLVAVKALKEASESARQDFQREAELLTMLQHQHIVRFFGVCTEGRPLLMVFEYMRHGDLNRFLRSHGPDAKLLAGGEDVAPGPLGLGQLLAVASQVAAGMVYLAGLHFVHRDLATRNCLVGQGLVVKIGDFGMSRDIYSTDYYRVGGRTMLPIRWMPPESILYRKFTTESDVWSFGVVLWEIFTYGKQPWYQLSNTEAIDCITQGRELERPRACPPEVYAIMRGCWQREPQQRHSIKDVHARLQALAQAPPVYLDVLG", "UniProt P62258, sequence (whole entry, looked up)": "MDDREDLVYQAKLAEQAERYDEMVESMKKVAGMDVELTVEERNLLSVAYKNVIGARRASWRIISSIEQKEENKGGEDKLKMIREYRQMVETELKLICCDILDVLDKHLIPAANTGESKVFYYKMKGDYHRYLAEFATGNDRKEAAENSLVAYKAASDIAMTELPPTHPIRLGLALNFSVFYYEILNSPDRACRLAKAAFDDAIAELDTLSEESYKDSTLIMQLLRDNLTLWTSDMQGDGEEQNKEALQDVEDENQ", "UniProt P08581, sequence (whole entry, looked up)": "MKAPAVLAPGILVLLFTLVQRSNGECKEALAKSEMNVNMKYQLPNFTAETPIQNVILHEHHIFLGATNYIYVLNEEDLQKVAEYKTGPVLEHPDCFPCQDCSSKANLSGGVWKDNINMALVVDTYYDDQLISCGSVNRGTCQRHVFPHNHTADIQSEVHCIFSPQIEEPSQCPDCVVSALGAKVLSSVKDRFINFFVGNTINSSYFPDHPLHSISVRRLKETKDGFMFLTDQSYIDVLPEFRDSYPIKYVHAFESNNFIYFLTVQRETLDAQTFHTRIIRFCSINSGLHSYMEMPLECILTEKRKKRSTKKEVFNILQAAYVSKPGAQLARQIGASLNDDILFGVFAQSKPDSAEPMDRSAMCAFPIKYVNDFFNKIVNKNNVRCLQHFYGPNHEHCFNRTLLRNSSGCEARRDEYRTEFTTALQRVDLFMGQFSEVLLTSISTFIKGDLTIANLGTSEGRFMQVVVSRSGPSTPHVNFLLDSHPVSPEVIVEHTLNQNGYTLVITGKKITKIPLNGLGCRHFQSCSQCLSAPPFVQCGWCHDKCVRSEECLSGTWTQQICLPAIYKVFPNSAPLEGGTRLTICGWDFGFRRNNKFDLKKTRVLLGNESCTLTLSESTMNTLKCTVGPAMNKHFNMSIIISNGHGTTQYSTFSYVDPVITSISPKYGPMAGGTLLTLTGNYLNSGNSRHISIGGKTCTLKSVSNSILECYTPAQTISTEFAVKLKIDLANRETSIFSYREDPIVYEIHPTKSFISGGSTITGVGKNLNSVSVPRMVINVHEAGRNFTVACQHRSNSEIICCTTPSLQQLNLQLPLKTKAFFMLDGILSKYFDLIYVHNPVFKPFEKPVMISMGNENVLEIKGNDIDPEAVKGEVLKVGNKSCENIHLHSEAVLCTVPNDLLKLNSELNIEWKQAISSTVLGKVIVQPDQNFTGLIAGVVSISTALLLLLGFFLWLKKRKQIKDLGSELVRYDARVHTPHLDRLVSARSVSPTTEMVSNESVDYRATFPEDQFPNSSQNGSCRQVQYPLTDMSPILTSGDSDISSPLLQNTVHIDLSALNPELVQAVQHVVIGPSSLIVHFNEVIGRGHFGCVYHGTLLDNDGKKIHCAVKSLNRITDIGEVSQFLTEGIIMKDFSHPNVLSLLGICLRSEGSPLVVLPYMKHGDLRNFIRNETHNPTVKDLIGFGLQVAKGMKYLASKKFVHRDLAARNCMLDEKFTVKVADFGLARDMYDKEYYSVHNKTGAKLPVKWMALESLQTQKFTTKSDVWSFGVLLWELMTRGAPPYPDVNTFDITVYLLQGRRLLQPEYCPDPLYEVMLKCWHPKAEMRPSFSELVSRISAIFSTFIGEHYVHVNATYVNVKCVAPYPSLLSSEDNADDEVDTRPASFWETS", "UniProt P00519, sequence (whole entry, looked up)": "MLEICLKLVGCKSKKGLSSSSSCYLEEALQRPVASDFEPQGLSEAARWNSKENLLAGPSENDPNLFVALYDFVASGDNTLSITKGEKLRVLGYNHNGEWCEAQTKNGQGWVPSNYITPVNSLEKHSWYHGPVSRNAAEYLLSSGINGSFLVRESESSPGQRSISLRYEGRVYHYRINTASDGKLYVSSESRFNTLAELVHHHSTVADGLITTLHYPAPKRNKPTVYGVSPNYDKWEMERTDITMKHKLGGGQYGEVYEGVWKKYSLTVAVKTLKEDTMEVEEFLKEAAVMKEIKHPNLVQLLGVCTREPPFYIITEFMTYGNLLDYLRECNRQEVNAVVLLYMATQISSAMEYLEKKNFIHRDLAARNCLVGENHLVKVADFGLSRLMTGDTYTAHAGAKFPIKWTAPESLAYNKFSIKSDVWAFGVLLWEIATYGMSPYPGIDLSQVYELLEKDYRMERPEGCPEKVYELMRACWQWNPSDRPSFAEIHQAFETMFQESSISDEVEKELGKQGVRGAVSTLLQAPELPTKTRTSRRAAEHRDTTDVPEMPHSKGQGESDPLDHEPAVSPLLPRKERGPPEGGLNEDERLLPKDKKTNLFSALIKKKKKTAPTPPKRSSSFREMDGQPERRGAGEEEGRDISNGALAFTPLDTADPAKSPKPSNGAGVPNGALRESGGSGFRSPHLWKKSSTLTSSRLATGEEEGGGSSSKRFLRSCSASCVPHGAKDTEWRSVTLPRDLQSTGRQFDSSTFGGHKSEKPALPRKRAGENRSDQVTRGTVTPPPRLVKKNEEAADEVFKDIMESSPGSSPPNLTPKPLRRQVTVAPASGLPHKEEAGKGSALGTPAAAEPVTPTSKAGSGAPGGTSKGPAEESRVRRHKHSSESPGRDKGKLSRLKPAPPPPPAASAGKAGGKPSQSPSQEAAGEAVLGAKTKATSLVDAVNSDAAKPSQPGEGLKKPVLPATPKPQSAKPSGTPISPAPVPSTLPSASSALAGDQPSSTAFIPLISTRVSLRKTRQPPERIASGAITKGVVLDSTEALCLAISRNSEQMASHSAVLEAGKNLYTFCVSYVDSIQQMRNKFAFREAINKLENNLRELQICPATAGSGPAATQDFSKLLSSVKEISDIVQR"}
{"Compound": "OC[C@H]1N[C@H](CCCCCOCC23CC4CC(CC(C4)C2)C3)[C@H](O)[C@@H](O)[C@@H]1O", "target": "Ugcg", "assay": "enzyme activity, inhibitor, fluorescence", "measurement": "IC50", "result": "50 µM"}
{"Compound": "Cc1nn(-c2cccc(N)c2)c(=O)c2cnc(Nc3ccc(N4CCNCC4)cc3)nc12", "target": "MET (Homo sapiens, UniProt P08581)", "assay": "kinase activity, inhibitor, SelectScreen kinase profiling", "measurement": "IC50", "result": "3.23 µM"}
{"Compound": "CCn1nc(Cl)c2c1-c1cnc(N)c(c1)O[C@H](C)c1cc(F)ccc1-c1nn(C)cc1C2", "target": "NTRK1 (Homo sapiens, UniProt P04629)", "assay": "enzyme activity, inhibitor, radiometric", "measurement": "IC50", "result": "0.053 µM"}
{"Compound": "CC(=O)N[C@@H](CCCNC(=N)N)C(=O)N[C@H](C(=O)N[C@@H](CCCCN)C(=O)N[C@@H](CO)C(=O)N[C@@H](CCCNC(=N)N)C(=O)N[C@H](C(=O)N[C@@H](Cc1c[nH]c2ccccc12)C(=O)N[C@@H](C)C(=O)NCC(=O)N[C@@H](CCC(=O)O)C(=O)N[C@@H](CCCCN)C(=O)N[C@@H](CO)C(=O)N[C@@H](CCCCN)C(=O)N[C@@H](CCCNC(=N)N)C(N)=O)[C@@H](C)OP(=O)(O)O)[C@@H](C)O", "target": "14-3-3 protein epsilon (Homo sapiens, UniProt P62258)", "assay": "surface plasmon resonance", "setting": "298 K", "measurement": "binding free energy", "result": "-38.99 ± 0.0418 kJ/mol"}
{"Compound": "O[C@H]1[C@H](O)[C@@H](Cl)C=C[C@@H]1O", "target": "yeast alpha-glucosidase", "assay": "covalent inhibitor", "setting": "pH 7, 37 °C", "measurement": "kinact/Ki", "result": "7.7 ± 0.07 M^–1 s^–1"}
{"Compound": "OC[C@H]1[C@@H](O)[C@H](O)[C@@H](O)CN1CCCCCOCc1cccc(-c2ccccc2)c1", "target": "Ugcg", "assay": "enzyme activity, inhibitor, fluorescence", "measurement": "IC50", "result": "0.07 µM"}
{"Compound": "CC(=O)NCCNc1ncc(C(=O)NC2=NN(c3ccc(Cl)c(Cl)c3)CC2)c(C)n1", "target": "Tyrosine-protein kinase ABL1, myristoyl pocket (ABL1, Homo sapiens, UniProt P00519)", "measurement": "Kd", "result": "0.056 µM"}
{"Compound": "CSCC[C@H](NC(=O)[C@H](CC(C)C)NC(=O)CNC(=O)[C@H](Cc1ccccc1)NC(=O)[C@H](Cc1ccccc1)NC(=O)[C@@H](N)CCC(N)=O)C(N)=O", "target": "TACR1 (Homo sapiens, UniProt P25103, N89D)", "assay": "agonist", "setting": "concentration not given", "measurement": "EC50", "result": "0.631 µM"}
{"Compound": "CCCCCN1C[C@@H](O)[C@H](O)[C@H](O)[C@@H]1CO", "target": "Ugcg", "assay": "enzyme activity, inhibitor, fluorescence", "measurement": "IC50", "result": "15 µM"}
{"Compound": "CC[C@@H](CO)NCc1ccc(-c2cc(Cl)ccc2Cl)o1", "target": "DRD3 (Homo sapiens, UniProt P35462)", "assay": "ligand displacement, radioligand", "measurement": "Ki", "result": "0.254 µM"}
{"note": "Excerpt of the above:"}
{"Compound": "CC(=O)NCCNc1ncc(C(=O)NC2=NN(c3ccc(Cl)c(Cl)c3)CC2)c(C)n1", "target": "Tyrosine-protein kinase ABL1, myristoyl pocket (ABL1, Homo sapiens, UniProt P00519)", "measurement": "Kd", "result": "0.056 µM"}
